Measured values pooled from the literature.
Every numbered part comes from another study and shows a few of its results, in no order. Positions count from the first letter of the parent shown.

Study 1 — target: CCNA1, cyclin fold, Cln2 fusion (human); technique: yeast growth competition, sequencing; matrix: yeast; notes: weak parent motif; relative to: not given; reading: higher = stronger binding; endpoint: normalised enrichment score; starting sequence: viral docking peptide; KGVKRKLFAEDSS
G2K: 1.49
K6V: 0.775
V3L: 0.389
L7R: 0.568
G2M: 0.91
R5E: 0.0765
V3N: 0.0865
K4A: 0.806
E10T: 0.43
F8Q: 0.25
K6F: -0.39
L7F: -0.0033
E10R: 0.0668
G2I: 1.17
S12Q: 0.494
G2P: 1.55
E10C: 0.575
V3Q: -0.292

Study 2 — target: MAFF, bZIP domain (human); technique: DHFR protein complementation; matrix: yeast; relative to: wild-type JUN-FOS pair; reading: higher = stronger binding; endpoint: binding fitness
Notes: single substitutions, most at no-binding floor
Starting sequence: JUN, bZIP domain (human); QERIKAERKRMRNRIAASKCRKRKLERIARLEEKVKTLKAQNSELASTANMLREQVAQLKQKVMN; partner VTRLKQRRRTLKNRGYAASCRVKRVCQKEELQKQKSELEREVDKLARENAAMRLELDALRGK
K36W: -1.49 natural log
A57P: -1.5 natural log
A49C: -1.19 natural log
I28N: -1.5 natural log
Q55L: -1.23 natural log
L31P: -1.49 natural log
S47D: -1.41 natural log
A46N: -1.42 natural log

Study 3 — technique: protein-binding microarray; form: double-stranded DNA, one strand shown; matrix: in vitro; concentration: not given; reading: higher = stronger binding; endpoint: E-score
Target: Max-binding protein MNT, bHLH-zipper, MAX partner unstated (MNT, Homo sapiens, UniProt Q99583, residues 220-300)
Notes: k-mer, scored over probes, only values ≥0.25
Residues (chain): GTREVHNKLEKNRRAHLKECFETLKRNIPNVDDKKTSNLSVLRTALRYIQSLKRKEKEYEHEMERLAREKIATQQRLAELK
AGCTCGTG: 0.322
CCACGTGC: 0.497
CACCGTGC: 0.27
CCCCAAGA: 0.259
GACCCCAC: 0.294
GCATGTCA: 0.355
GTGTGCAA: 0.257
ATGAGCAC: 0.273

Mixed results — technique: cross-linking MS
COX5B (Homo sapiens, UniProt P10606)
cross-linked residues (COX4I1 (Homo sapiens, UniProt P13073); cell fractions; added: DMTMM): K86 to E31

DR1 (Homo sapiens, UniProt Q01658)
interaction screen (DRAP1 (Homo sapiens, UniProt Q14919); hits only): cross-linked

TCAF2 (Homo sapiens, UniProt A6NFQ2)
cross-linked residues (CSDE1 (Homo sapiens, UniProt O75534); cell fractions; added: DSSO): T594 to K239

FKBP3 (Homo sapiens, UniProt Q00688)
cross-linked residues (GAREM1 (Homo sapiens, UniProt Q9H706); cell fractions; added: DSSO): K48 to S471
